Published values from different studies.
Protocols differ between the studies behind these lines. ± marks the error that the study gave.
Organism: HIV-1

SMILES | assay | system | setting | scale | EC50
CCCCCCCCCCCCCCCC(=O)OC[C@H]1O[C@@H](n2cc(F)c(N)nc2=O)CS1 | viral replication, item: reverse transcriptase activity | human monocyte-derived macrophages, ADA |  |  | 33 nM
Cc1cc(C#N)cc(C)c1Oc1nc(NC2CCN(Cc3ccc(C(N)=O)cc3)CC2)nc2cccnc12 | viral replication, luciferase reporter | TZM-bl, NL4-3 wild type |  |  | 1.89 ± 0.53 nM
CC(=O)NCCN(CC(=O)NCCN(CC(=O)NCCN(CC(=O)NCCC(N)=O)C(=O)C[C@@H](N)CCCCN)C(=O)C[C@@H](N)Cc1ccccc1)C(=O)C[C@@H](N)Cc1ccccc1 | viral replication, item: reverse transcriptase activity | PBMC, LAI |  |  | 254000 nM
Cc1cc(C#N)cc(C)c1Oc1nc(NC2CCN(Cc3ccc(S(C)(=O)=O)cc3)CC2)nc2ncccc12 | viral replication, luciferase reporter | TZM-bl, NL4-3 wild type |  |  | 1.71 ± 0.41 nM
Nc1nc(Cl)nc2c1ncn2C1OC(CO)C2CC=CCC21 (mixture of isomers) | viral replication | human PBM cells, LAI |  |  | 76200 nM
Cc1ccc(CN2CCC(Nc3nc(Oc4c(C)cc(C#N)cc4C)c4ccccc4n3)CC2)cc1 | viral replication, luciferase reporter | TZM-bl, NL4-3 wild type |  |  | 11.5 ± 4.12 nM
O=C(O)[C@H](Cc1ccc2ccccc2c1)NC(=O)C1(c2ccc3ccccc3c2)CCN(S(=O)(=O)c2ccc([N+](=O)[O-])cc2)CC1 | viral replication | pNL4-3 wild type |  |  | 17000 nM
Cc1cc(C#N)cc(C)c1Oc1nc(NC2CCN(Cc3ccc([N+](=O)[O-])cc3)CC2)nc2ccccc12 | viral replication, luciferase reporter | TZM-bl, NL4-3 wild type |  |  | 14.8 ± 4.46 nM
CC(=O)NCCN(CC(=O)NCCN(CC(=O)NCCN(CC(=O)NCCC(N)=O)C(=O)C[C@@H](N)CCCNC(=N)N)C(=O)C[C@@H](N)Cc1ccccc1)C(=O)C[C@@H](N)Cc1ccccc1 | viral replication, item: reverse transcriptase activity | PBMC, LAI |  |  | 130000 nM
COc1ccc(-n2c(SCc3cccnc3)nnc2[C@H](Cc2ccccc2)NC(=O)Cc2c(C)[nH]c3ccccc23)cc1 | HIV-1-induced cytopathicity, MTT | MT-4, wild type |  | 50% protection | 2610 ± 390 nM
Cc1cc(C)cc(S(=O)(=O)c2c(C(N)=O)[nH]c3ccc(Cl)cc23)c1 | viral replication | MT-4, IIIB |  |  | 4.1 ± 1.4 nM
COc1cc2nc(NC3CCN(Cc4ccc(C(N)=O)cc4)CC3)nc(Oc3c(C)cc(C#N)cc3C)c2cc1OC | viral replication, MTT | MT-4, IIIB |  |  | 4.5 nM
Cc1ccc2c(N)c(C(=O)Nc3cccc(C(F)(F)F)c3)sc2n1 | HIV-induced cytopathicity, XTT | CEM-SS, RF | 6 days |  | 28000 nM
Cc1cc(C#N)cc(C)c1Oc1nc(NC2CCN(Cc3ccc(Br)cc3)CC2)nc2ccccc12 | viral replication, luciferase reporter | TZM-bl, NL4-3 wild type |  |  | 34.4 ± 12.3 nM
CC(=O)OCC1OC(n2ccc(=O)[nH]c2=O)C2CC=CCC12 (mixture of isomers) | viral replication | human PBM cells, LAI |  |  | 60700 nM
COc1cc(F)c(C(=O)c2ccnc(Nc3ccc(C#N)cc3)n2)c(F)c1 | cytoprotection | MT4, IIIB wild type | 5 days |  | 5 nM
Nc1ccn(C2OC(CO)C3CC=CCC32)c(=O)n1 (mixture of isomers) | viral replication | human PBM cells, LAI |  |  | > 100000 nM
COc1ccc(-n2c(SCCN(C)C)nnc2[C@H](Cc2ccccc2)NC(=O)Cc2c(C)[nH]c3ccccc23)cc1 | HIV-1-induced cytopathicity, MTT | MT-4, wild type |  | 50% protection | 850 ± 240 nM
COc1cccc2c(Oc3c(C(F)(F)F)ccn(Cc4n[nH]c(=O)n4C)c3=O)cc(C)nc12 | viral cytopathicity | MT4, wild type |  |  | > 244000 nM
COc1ccc(-n2c(SCCF)nnc2[C@H](Cc2ccccc2)NC(=O)Cc2c(C)[nH]c3ccccc23)cc1 | HIV-1-induced cytopathicity, MTT | MT-4, wild type |  | 50% protection | 1240 ± 570 nM
CC(=O)OCC1OC(n2cc(C=CBr)c(=O)[nH]c2=O)C2CC=CCC12 (mixture of isomers) | viral replication | human PBM cells, LAI |  |  | > 100000 nM
Cc1cc(C#N)cc(C)c1Oc1nc(NC2CCN(Cc3ccc(S(C)(=O)=O)cc3)CC2)nc2ccccc12 | viral replication, luciferase reporter | TZM-bl, NL4-3 wild type |  |  | 1.42 ± 0.48 nM
COc1ccc(-n2c(SCc3ccc(S(N)(=O)=O)cc3)nnc2[C@H](Cc2ccccc2)NC(=O)Cc2c(C)[nH]c3ccccc23)cc1 | HIV-1-induced cytopathicity, MTT | MT-4, wild type |  | 50% protection | 2470 ± 110 nM

Some of these lines once more:
SMILES | assay | system | setting | scale | EC50
COc1ccc(-n2c(SCCN(C)C)nnc2[C@H](Cc2ccccc2)NC(=O)Cc2c(C)[nH]c3ccccc23)cc1 | HIV-1-induced cytopathicity, MTT | MT-4, wild type |  | 50% protection | 850 ± 240 nM
COc1cccc2c(Oc3c(C(F)(F)F)ccn(Cc4n[nH]c(=O)n4C)c3=O)cc(C)nc12 | viral cytopathicity | MT4, wild type |  |  | > 244000 nM
COc1ccc(-n2c(SCCF)nnc2[C@H](Cc2ccccc2)NC(=O)Cc2c(C)[nH]c3ccccc23)cc1 | HIV-1-induced cytopathicity, MTT | MT-4, wild type |  | 50% protection | 1240 ± 570 nM
